# Experimental data pooled from the literature.
# Each line is one published result; not all experiments were run side by side. Values joined by “and” are separate records of one study, mostly repeats; a detail may differ. ± marks the error that the study gave.
SMILES,assay,test system,conditions,how to read,quantity,result
Cc1nc2cccc(OCC(C)(C)C(=O)NC(C)C)c2c(N)c1C(=O)O,,"male Swiss albino CD-1 mouse, bone marrow","oral, 1000 mg/kg, 36 h",,PCE/NCE ratio,0.85
COc1cccc(OC)c1-c1cc(C(=O)NC2(C(=O)O)C3CC4CC(C3)CC2C4)nn1-c1ccc(C(=O)N(C)CCCN(C)CCCN(C)C(=O)CN2CCN(CC(=O)[O-])CCN(CC(=O)[O-])CCN(CC(=O)[O-])CC2)cc1C(C)C.[177Lu+3] (centres unmarked),,"mouse, HT-29 xenograft","72 h post injection, biodistribution",reference: tumour over heart uptake,tumour-to-heart ratio,67.8
CC[C@@H]([C@H](C)O)n1ncn(-c2ccc(N3CCN(c4ccc(OC[C@@H]5CO[C@@](Cn6cncn6)(c6ccc(F)cc6F)C5)cc4)CC3)cc2)c1=O,,rat plasma,"800 ng/mL, 4 h, 10 °C, autosampler",reference: nominal concentration,stability relative error,-1.3%
O=C1N[C@H](c2cncc(C#Cc3ccccc3)c2)[C@@H](c2ccccc2Cl)O1,,rat,28 days,,NOAEL,15 mg/kg/day
C/C(O)=C(\C#N)C(=O)Nc1ccc(C(F)(F)F)cc1,,"CD-1 mice female, plasma","oral, 10 mg/kg leflunomide daily, 24 h",,free plasma concentration,90700 ± 13700 nM
CC(C)c1nc(N(C)S(C)(=O)=O)nc(-c2ccc(F)cc2)c1/C=C/[C@@H](O)C[C@@H](O)CC(=O)O,population pharmacokinetic model,people living with HIV,"oral, dose not given, bootstrap median",,central volume of distribution,144 L
C[Si](C)(C)O[Si](C)(C)O[Si](C)(C)O[Si](C)(C)O[Si](C)(C)C,IVIVE from S9,rainbow trout (Oncorhynchus mykiss),,,whole-body biotransformation rate constant,0.0067 day⁻¹ and 0.01 day⁻¹ and 0.0097 day⁻¹
COc1cc2nccc(Oc3ccc(NC(=O)NC4CC4)c(Cl)c3)c2cc1C(N)=O,UPLC-MS/MS,"Sprague-Dawley rat, male, plasma","oral, 10 mg/kg, without azole co-treatment",,apparent clearance CLz/F,34.8 ± 5.83 mL/min/kg
CN1C(=O)[C@@H](NC(=O)c2nnc(Cc3ccccc3)[nH]2)COc2cccnc21,phase I multiple ascending dose,"human, male and female","oral, 50 mg, 14 days",,participants with any TEAE,87.5%
CCN1/C(=C/C(C)=O)Sc2ccc(F)cc21,,cynomolgus monkey,"oral, 30 mg/kg, 1 h post-dose",reference: pre-dose,systolic blood pressure change,96.4 ± 4.8%
C=C[C@@](C)(/C=C/c1ccc(O)cc1)CCC=C(C)C,post-procedure stability,rat plasma,"1000 ng/mL, 1 h, room temperature",,accuracy,87.7%
CN[C@@H](C)C(=O)N[C@H]1CN(S(=O)(=O)c2cccc(S(=O)(=O)N3CC[C@H]4CC[C@@H](C(=O)NC(c5ccccc5)c5ccccc5)N4C(=O)[C@@H](NC(=O)[C@H](C)NC)C3)c2)CC[C@H]2CC[C@@H](C(=O)NC(c3ccccc3)c3ccccc3)N2C1=O,LC-MS/MS,"human, advanced solid tumours, plasma","intravenous, 20 mg weekly, day 15",,AUC(0-t),352 ± 73.8 ng·h/mL
CNC(=O)c1ccc(-c2cnc3ncc(Cc4ccc5ncccc5c4)n3n2)cc1F,refers to: Constipation,hepatocellular carcinoma patients,"oral, 600 mg twice daily, expansion cohort, grade 3-4",,patients with adverse event,0%
c1ccc2cc3ccccc3cc2c1,,PDMS-water partitioning,PAH compilation,,literature range of log K,3.82 to 4.5 log units
O=C(Nc1nc2cccc(-c3ccc(CN4CCS(=O)(=O)CC4)cc3)n2n1)C1CC1,refers to: ankle fracture,human rheumatoid arthritis patients,"oral, 200 mg once daily, 4 weeks, regardless of relatedness",,treatment-emergent adverse events,0%
Cc1c(-c2ccc(N3CCc4cccc(C(=O)Nc5nc6ccccc6s5)c4C3)nc2C(=O)O)cnn1CC12CC3(C)CC(C)(C1)CC(OCCNCC[C@H](O)CO)(C3)C2,,anaesthetized male beagle dog,"iv infusion, 0.01 mg/kg/min, 60 min",,plasma concentration,< 2 ng/mL
Cc1ccc(C(=O)N(CCCN)C(c2nc3snc(C)c3c(=O)n2Cc2ccccc2)C(C)C)cc1 (centres unmarked),refers to: Fatigue,human patients,"intravenous, 16 mg/day, CTCAE grade ≥3",,patients with adverse events,0%
C[C@H]1Oc2cc(cnc2N)-c2c(nn(C)c2C#N)CN(C)C(=O)c2ccc(F)cc21,,"Balb/c nude mouse, female, plasma","5 mg/kg, single dose, 12 h",,free plasma concentration,49.5 nM
O=C(OC(C(F)(F)F)C(F)(F)F)N1CCN(Cc2cccc(Oc3ccccc3)c2)CC1,PET blocking study,"rhesus monkey, brain Pons","0.1 mg/kg, compound pretreatment, with: [18F]T-401 tracer",,k2,9.47 min⁻¹
CCc1cc(C(=O)NC)c2nccc(N3CCc4c(cc(Cn5ccnc5)cc4-c4cn(C)nc4C(F)(F)F)C3=O)c2c1,,Sprague Dawley rats,"oral, 100 mg/kg twice daily, 7 days",reference: vehicle,blood Baso change,-29.4%
CNCCOC12CC3(C)CC(C)(CC(Cn4ncc(-c5ccc(N6CCc7cccc(C(=O)Nc8nc9ccccc9s8)c7C6)nc5C(=O)O)c4C)(C3)C1)C2,,anaesthetised male beagle dogs,"intravenous bolus, 0.03 mg/kg, 105 min",reference: baseline,cardiac output change,-41%
Nc1ncnc2c1ncn2[C@H]1C[C@@H]2OP(=O)(O)OC[C@H]3O[C@@H](n4cnc5c(N)ncnc54)C[C@@H]3OP(=O)(O)OC[C@H]2O1,,"non-tumor-bearing mice, blood","intravenous, 1 mg/kg, toxicity study",,neutrophil percentage,11.4 ± 3.46%
Cl.[2H]C([2H])([2H])CC(=O)c1cnc(NC(=O)C2CC2)cc1Nc1cccc(-c2ncn(C([2H])([2H])[2H])n2)c1OC,,"human, fasted, multiple dose","oral, 40 mg twice daily, tablet, day 14, geometric mean",,Vss/F,221 L
Cc1cnc(N2CC3(CCOCC3)C2)c(C(=O)Nc2ccc(C(=O)N3CCc4cc(C(=O)Nc5c(C)cccc5F)sc4-c4ccccc43)cc2)c1,,dog,"oral gavage, 2 mg/kg",,plasma level after oral dosing,~1 ng/mL
O=C1c2ccncc2C(=O)c2c1[nH]c1ccccc21,,"Sprague-Dawley rat female, plasma","intravenous, 1 mg/kg",,volume of distribution,1.9 ± 1.2 L
NC[C@@]1(CC(=O)O)[C@@H]2CC[C@H]3C[C@@H]2[C@@H]1C3,,"humans with mild renal impairment, plasma",dose not given,reference: normal renal function,unbound AUC(0-inf) increase,12.9%
COc1ccc(C[C@H](NC(=O)[C@H](C)NC(=O)CN2CCOCC2)C(=O)N[C@@H](Cc2ccccc2)C(=O)C2(C)CO2)cc1 (stereo in doubt),,BALB/c mouse,"oral vs intravenous, 20 mg/kg",,F,23.8%
Cc1cc(-c2nccc3c2ccn3CC(=O)Nc2ccc(-c3cnccn3)cn2)ccn1,,healthy human volunteers,"oral, 40 mg single dose, single ascending dose",,device site dermatitis incidence,0%
Cc1cc(NC2CCN(C(=O)OC3CCN(C(=O)/C=C/CN(C)C)C3)CC2)n2ncc(C(C)C)c2n1 (centres unmarked),"Phase I dose escalation CTCAE v4.0, refers to: Headache",patients with advanced solid tumours,"dose not given, all dose schedules any grade",,patients with adverse event,9%
C[C@@H](Oc1ccc(S(C)(=O)=O)cc1C(=O)N1C[C@@H]2C[C@]2(c2cc(C(F)(F)F)on2)C1)C(F)(F)F,,"elderly humans, urine","oral, 25 mg once daily, 0-24 h, single dose, geometric mean",,renal clearance,4.88 mL/min
CCCCC[C@H](O)CC[C@@H]1[C@H]2Cc3cccc(OCC(=O)O)c3C[C@H]2C[C@H]1O,LC-MS/MS,"Japanese PAH patients under 56.7 kg, plasma","inhaled, 54 µg",,geometric mean half-life,45 min
N#Cc1ccc2c(c1)[C@H]1CCCN(C(=O)c3ccc4[nH]cnc4c3)[C@H]1C2,,human,"80 mg, end of trial",,median ACTH level,5.9 pmol/L
NC1(C(=O)N[C@@H](CCO)c2ccc(Cl)cc2)CCN(c2nc[nH]c3nccc2-3)CC1,,metastatic CRPC patients,"dose not given, any grade, treatment-related, all doses, with: enzalutamide 160 mg daily",,incidence of Dysuria,6.7%
CC(C)(C(=O)N1CCOc2c(C#N)cncc2C1)C(F)F,refers to: Headache,human,"oral, 20 mg once daily, 14 days, multiple ascending dose",,subjects with adverse event,0%
C[Si](C)(C)O[Si](C)(C)C,,1-octanol/water,concentration not given,,entropy of phase change,0.164 kJ/(mol·K)
CN(CCC(=O)O)C(=O)c1ccc2c(c1)CC[C@@H]1[C@@H]2CC[C@]2(C)C(c3cncc(F)c3)=CC[C@@H]12,,"premenopausal women with endometriosis pain, serum","60 mg twice daily, end of treatment, completers, median",reference: baseline,total bilirubin change,0.4 mg/dL
COc1cc2nccc(Oc3ccc(NC(=O)c4cc5c(n(-c6ccccc6)c4=O)CCCC5=O)nc3)c2cc1OC,,relapsed or refractory AML,"oral, 6 mg once daily",,grade ≥3 Leucocytosis patients,33.3%
COc1cc(F)c([C@@H]2CNC(=O)[C@H]2NC(=O)Nc2ccccc2)c(F)c1,,"Sprague-Dawley rat, myocardial infarction, dried blood spot","oral, 1 mg/kg, 1 h",,blood concentration,210 ± 72 nM

# A few entries again:
SMILES,assay,test system,conditions,how to read,quantity,result
Cc1nc2cccc(OCC(C)(C)C(=O)NC(C)C)c2c(N)c1C(=O)O,,"male Swiss albino CD-1 mouse, bone marrow","oral, 1000 mg/kg, 36 h",,PCE/NCE ratio,0.85
COc1cccc(OC)c1-c1cc(C(=O)NC2(C(=O)O)C3CC4CC(C3)CC2C4)nn1-c1ccc(C(=O)N(C)CCCN(C)CCCN(C)C(=O)CN2CCN(CC(=O)[O-])CCN(CC(=O)[O-])CCN(CC(=O)[O-])CC2)cc1C(C)C.[177Lu+3] (centres unmarked),,"mouse, HT-29 xenograft","72 h post injection, biodistribution",reference: tumour over heart uptake,tumour-to-heart ratio,67.8
CC[C@@H]([C@H](C)O)n1ncn(-c2ccc(N3CCN(c4ccc(OC[C@@H]5CO[C@@](Cn6cncn6)(c6ccc(F)cc6F)C5)cc4)CC3)cc2)c1=O,,rat plasma,"800 ng/mL, 4 h, 10 °C, autosampler",reference: nominal concentration,stability relative error,-1.3%
O=C1N[C@H](c2cncc(C#Cc3ccccc3)c2)[C@@H](c2ccccc2Cl)O1,,rat,28 days,,NOAEL,15 mg/kg/day
C/C(O)=C(\C#N)C(=O)Nc1ccc(C(F)(F)F)cc1,,"CD-1 mice female, plasma","oral, 10 mg/kg leflunomide daily, 24 h",,free plasma concentration,90700 ± 13700 nM
CC(C)c1nc(N(C)S(C)(=O)=O)nc(-c2ccc(F)cc2)c1/C=C/[C@@H](O)C[C@@H](O)CC(=O)O,population pharmacokinetic model,people living with HIV,"oral, dose not given, bootstrap median",,central volume of distribution,144 L
